Results pooled from the literature.
Values joined by “and” are separate records of one study, mostly repeats; a detail may differ. ± marks the error that the study gave.
P4HB: Protein disulfide-isomerase (P4HB, Homo sapiens, UniProt P07237)
Gria1/Gria2: Glutamate receptor AMPA 1/2 (Gria1/Gria2, Rattus norvegicus, UniProt P19490+P19491)
PSMB8: Proteasome subunit beta type-8 (PSMB8, Homo sapiens, UniProt P28062)
HDAC9: Histone deacetylase 9 (HDAC9, Homo sapiens, UniProt Q9UKV0)
GBA1 R534H: Lysosomal acid glucosylceramidase (GBA1, Homo sapiens, UniProt P04062, R534H)
HDAC6: Protein deacetylase HDAC6 (HDAC6, Homo sapiens, UniProt Q9UBN7)

Structure (SMILES)	target	test	test system	conditions	IC50
CN(C)c1ccc(C(=O)/C=C/c2ccc(O)cc2)cc1	P4HB	enzyme activity, inhibitor	–	–	64 µM
O=C(O)Cc1cc2c(cc1C(=O)c1cccc(Cl)c1)OCO2	Gria1/Gria2	ion current, antagonist, patch clamp	–	–	4.17 µM
COC(=O)c1ccc(/C=C/C(=O)c2ccc(N3CCCCC3)cc2)cc1	P4HB	enzyme activity, inhibitor	–	–	> 100 µM
CC1(C)C(=O)N=C2C1=C(O)C(=O)c1ccccc12	N-lysine methyltransferase SMYD2 (SMYD2, Homo sapiens, UniProt Q9NRG4, G165E)	enzyme activity, inhibitor	–	–	3 µM
CC(C)C[C@H](NC(=O)[C@H](Cc1ccc(CN)cc1)NC(=O)[C@H](Cc1ccccc1)N=[N+]=[N-])C(=O)N[C@@H](CC1CCCC2CCCCC21)C(=O)[C@@]1(C)CO1 (some centres unmarked)	PSMB8	enzyme activity, inhibitor	–	lysate	> 10 µM
O=C(CCc1ccc(CNC(C(=O)O)C2CCCCC2)cn1)NO (centres unmarked)	HDAC9	enzyme activity, inhibitor	–	–	> 10 µM
COC(=O)Cc1cc2c(cc1C(=O)c1ccccc1Br)OCO2	Gria1/Gria2	ion current, patch clamp	–	–	5.48 µM
OC[C@@H]1[C@@H](O)[C@H](O)[C@@H](O)CN1CCCC/C=C\C12CC3CC(CC(C3)C1)C2	GBA1 R534H	inhibitor, 4MU-β-D-glucopyranoside	–	added: 4MU-β-D-glucopyranoside	0.5 µM
COc1cncc(-c2ccc3[nH]c4ncnc(N[C@H]5CC[C@H](N6CCOCC6)CC5)c4c3c2)c1	Interleukin-1 receptor-associated kinase 4 (IRAK4, Homo sapiens, UniProt Q9NWZ3)	enzyme activity, inhibitor, AlphaScreen	–	added: ATP 200 µM	0.011 µM
OCC1=C[C@@H](F)[C@H](O)[C@@H](O)[C@@H]1O	Lysosomal acid glucosylceramidase (GBA1, Homo sapiens, UniProt P04062)	–	–	added: resorufin β-glucoside at Km	41 ± 15 µM
O=C(/C=C/c1ccc2c(c1)OCCO2)c1cc(Br)ccc1O	P4HB	enzyme activity, inhibitor	–	–	> 100 µM
C=C(NC(=O)c1csc(-c2nc3c(cc2O)-c2nc(cs2)C(=O)NC(C(C)O)C(=O)NC(=C(C)OC)c2nc(cs2)C(=O)NC2c4nc(cs4)C(=O)NC(COC(=O)c4c5c6c(cccc6n4O)COC(=O)C(OC4CC(C)(O)C(N(C)C)C(C)O4)C2OC5)c2nc-3cs2)n1)C(N)=O (centres unmarked)	Cytochrome P450 2E1 (CYP2E1, Homo sapiens, UniProt P05181)	enzyme activity, inhibitor	human, liver microsomes	pH 7.4	> 50 µM
OC[C@@H]1[C@@H](O)[C@H](O)[C@@H](O)CN1CCCCCOCc1ccc(-c2ccc(F)nc2)cc1	GBA1 R534H	inhibitor, 4MU-β-D-glucopyranoside	–	added: 4MU-β-D-glucopyranoside	3 µM
CCCCCCN(O)C(=O)CCCCC[C@@H]1NC(=O)[C@H]([C@@H](C)CC)NC(=O)[C@H](Cc2ccccc2C(F)(F)F)NC(=O)CCSCc2cccc(n2)CSCCCNC1=O	HDAC9	enzyme activity, inhibitor, fluorogenic	–	–	> 30 µM
C[C@@H](Nc1nc2c(cnn2C(C)(C)C)c(=O)n1Cc1cccc(F)c1)c1ccc(Cl)cc1	cGMP-inhibited 3',5'-cyclic phosphodiesterase 3A (PDE3A, Homo sapiens, UniProt Q14432)	enzyme activity, inhibitor	–	–	> 10 µM
CC(=O)OC1CCC2(C)C(CCC3(C)C2CC=C2C4C(C)C(C)CCC4(C(=O)O)CCC23C)C1(C)C (centres unmarked)	UDP-glucuronosyltransferase 1A6 (UGT1A6, Homo sapiens, UniProt P19224)	enzyme activity, inhibitor	–	–	> 100 µM
CCOc1cc(CN2CC3(CC(N4CCC(C(=O)O)CC4)=NO3)C2)cc(OCC)c1-c1ccc(F)cc1	Somatostatin receptor type 5 (SSTR5, Homo sapiens, UniProt P35346, D119A)	cAMP level, antagonist, GloSensor	AD293	D119A mutant, bandwidth 3.32, added: CST17 EC80 and forskolin	3.39 µM
CC(C)C[C@H](NC(=O)[C@H](Cc1ccc(CN)cc1)NC(=O)[C@H](Cc1ccccc1)N=[N+]=[N-])C(=O)N[C@H](C(=O)[C@@]1(C)CO1)C1CCCCC1	PSMB8	enzyme activity, inhibitor	–	lysate	> 10 µM
CNC(=O)Nc1ccc(Cc2ccc(NC(=O)c3nc(N)sc3-c3ccccc3)cc2)cc1	Epithelial discoidin domain-containing receptor 1 (DDR1, Homo sapiens, UniProt Q08345)	ligand displacement	–	–	1.5 µM
CC(C)=CCC/C(C)=C/CC/C(C)=C/CN1C[C@@H](O)[C@H](O)[C@H](O)[C@@H]1CO	GBA1 R534H	inhibitor, 4MU-β-D-glucopyranoside	–	added: 4MU-β-D-glucopyranoside	100 µM
O=C(O)Cc1cc2c(cc1C(=O)c1cccc(I)c1)OCO2	Gria1/Gria2	ion current, patch clamp	–	–	4.66 µM
Cc1ccc(C)c(/C=C/C(=O)c2ccc(O)cc2)c1	P4HB	enzyme activity, inhibitor	–	–	1.97 µM
CC(C)c1ccccc1OS(=O)(=O)Oc1cccc(C(=O)NO)c1	HDAC6	enzyme activity, inhibitor, fluorescence	–	–	0.755 µM
COC(=O)Cc1cc2c(cc1C(=O)c1ccccc1)OCO2	Gria1/Gria2	ion current, patch clamp	–	–	6.08 µM
CCc1c(C)[nH]n(-c2ccc(Oc3ccccc3)c(S(=O)(=O)O)c2)c1=O	Protein FosB, ΔFosB isoform, with JunD (Fosb, Mus musculus, UniProt P13346)	ΔFosB/JunD binding to AP-1 DNA, inhibitor, fluorescence polarization	–	protein, full length 280 nM, no TCEP, added: 25 nM TMR-cdk5 oligonucleotide	10 to 90 µM

Structure (SMILES)	target	test	test system	conditions	IC50
CC(=O)OCC1C=C(C2(C)CCCCC2)CCC1COC(C)=O (single isomer, unassigned; (+))	Peptidyl-prolyl cis-trans isomerase F, mitochondrial (PPIF, Homo sapiens, UniProt P30405)	enzyme activity, inhibitor	–	–	< 0.5 µM
OC[C@@H]1[C@@H](O)[C@H](O)[C@@H](O)CN1CCCCCOCCc1ccsc1	GBA1 R534H	inhibitor, 4MU-β-D-glucopyranoside	–	added: 4MU-β-D-glucopyranoside	6 µM
Cc1cnc(Nc2ccc3c(c2)CCN(C(=O)/C=C/C(=O)c2ccc(Cl)cc2)C3)nc1-c1cnn(C(C)C)c1	Tyrosine-protein kinase JAK3 (JAK3, Homo sapiens, UniProt P52333)	enzyme activity, inhibitor, ADP detection	–	–	> 0.03 µM
COc1ccc(C(=O)/C=C/c2ccc(Br)cc2F)c(OC)c1	P4HB	enzyme activity, inhibitor	–	–	> 100 µM
COCCN(C)CC(=O)NC(Cc1ccc(-c2ccccc2)cc1)B(O)O (centres unmarked)	PSMB6/PSMB7 (Homo sapiens, UniProt P28072+Q99436)	β1c caspase-like activity, inhibitor	–	constitutive proteasome, added: Z-LLE-AMC	> 10 µM
COC(=O)Cc1cc2c(cc1C(=O)c1ccccc1I)OCO2	Gria1/Gria2	ion current, antagonist, patch clamp	–	–	6.03 µM
Cc1ccc2nc(C)n(/N=C/c3ccc(C(=O)O)cc3)c(=O)c2c1	Phospholipase A2 group V (PLA2G5, Homo sapiens, UniProt P39877)	enzyme activity, inhibitor, colorimetric	–	–	93.7 ± 3.52 µM
COC(C(N)=O)C(NC(=O)c1ccc(NC(=O)c2ccc(C#N)cc2)cc1)C(=O)Nc1ccc(C(=O)Nc2ccc(C(=O)Nc3ccc(C(=O)O)cc3)c(O)c2OC(C)C)cc1 (centres unmarked)	DNA gyrase (gyrA/gyrB, Escherichia coli, UniProt P0AES4+P0AES6)	DNA supercoiling, inhibitor, gel-based	–	–	0.448 µM
CCCCCCCOCCCCCN1C[C@H](O)[C@@H](O)[C@H](O)[C@H]1CO	GBA1 R534H	inhibitor, 4MU-β-D-glucopyranoside	–	added: 4MU-β-D-glucopyranoside	1.75 µM
Nc1ccc(-c2ccc(F)cc2)cc1NC(=O)C1CCOCC1	HDAC6	enzyme activity, inhibitor	–	–	> 33.3 µM
CCCCCCCN1C[C@H](O)[C@@H](O)[C@H](O)[C@H]1CO	GBA1 R534H	inhibitor, 4MU-β-D-glucopyranoside	–	added: 4MU-β-D-glucopyranoside	18.5 µM
CC[C@H](C)C(=O)O[C@H]1C[C@@H](C)C=C2C=C[C@H](C)[C@H](CC[C@@H]3CC=CC(=O)O3)[C@H]21	Cystic fibrosis transmembrane conductance regulator (CFTR, Homo sapiens, UniProt P13569)	apical chloride current, inhibitor	T84, basolaterally permeabilized	added: genistein 20 µM	4.35 µM
O=C1CCC(N2C(=O)c3ccc(N4CCC(C(=O)N5CCC(CCN6CCC(CNC(=O)c7cccc(-c8noc(C(F)(F)F)n8)c7)(c7nc(-c8ccccc8)cs7)CC6)CC5)CC4)cc3C2=O)C(=O)N1 (centres unmarked)	HDAC9	enzyme activity, inhibitor	–	–	0.18 µM
COc1ccc(C[C@H](N)C(=O)N[C@H]2[C@@H](O)[C@H](n3cnc4c(N(C)C)ncnc43)O[C@@H]2CCl)cc1	Puromycin-sensitive aminopeptidase (Homo sapiens, UniProt P55786)	enzyme activity, inhibitor, fluorescence	–	–	3.9 µM
C[C@@H](O)[C@@H]1NC(=O)[C@H](CCCCN)NC(=O)[C@@H](Cc2c[nH]c3ccccc23)NC(=O)[C@H](Cc2ccc(NC(N)=O)cc2)NC(=O)[C@H](NC(=O)[C@H](Cc2ccccc2)NC(N)=O)CSSC[C@@H](C(=O)N[C@@H](Cc2ccc3ccccc3c2)C(N)=O)NC1=O	Somatostatin receptor type 1 (SSTR1, Homo sapiens, UniProt P30872)	ligand displacement, radioligand	–	–	> 1 µM
Cc1cc(C)nc(Nc2ccc([C@@H]3CCCN(C(=O)/C=C/c4csc(C)n4)C3)nc2)n1	Cyclin-dependent kinase 6 (CDK6, Homo sapiens, UniProt Q00534)	enzyme activity, inhibitor, ADP detection	–	–	0.226 µM and 0.361 µM
OC[C@H]1[C@@H](O)[C@H](O)[C@@H](O)CN1CCCCCOCc1ccccc1	GBA1 R534H	inhibitor, 4MU-β-D-glucopyranoside	–	added: 4MU-β-D-glucopyranoside	10 µM
COC(=O)c1cc(Br)cc(C#Cc2ccc(NC(=O)c3cccc4c3NC(=O)C43CC(NC(=O)OC(C)(C)C)C(=O)O3)cc2)c1 (centres unmarked)	D-3-phosphoglycerate dehydrogenase (PHGDH, Homo sapiens, UniProt O43175)	enzyme activity, inhibitor	–	–	2.5 µM
Cc1nn(-c2cccc(N)c2)c(=O)c2cnc(Nc3ccc(N4CCNCC4)cc3)nc12	Sphingosine kinase 2 (SPHK2, Homo sapiens, UniProt Q9NRA0)	kinase activity, inhibitor, SelectScreen kinase profiling	–	–	> 10 µM
CCCCc1nc2c([nH]1)[C@H](O)[C@@H](O)[C@H](O)[C@H]2O	bglA (Thermotoga maritima, UniProt Q08638)	enzyme activity, inhibitor	–	pH 6.8, with preincubation	> 100 µM
CC(C)c1ccccc1[C@@H]1CCCN1C1CC2(CCN(c3ccc(C(=O)NS(=O)(=O)c4ccc(NC[C@H]5CC[C@](C)(O)CC5)c([N+](=O)[O-])c4)c(Oc4cnc5[nH]ccc5c4)c3)CC2)C1	Bcl-2-related protein A1 (Homo sapiens, UniProt Q16548)	binding, inhibitor, TR-FRET competition	–	added: BAX-derived peptide	> 10 µM
O=c1c(-c2cnn(-c3ccccc3)c2)c(C(F)(F)F)oc2c(O)c(O)ccc12	Cullin-1, C-terminal domain with ROC1 (Homo sapiens, UniProt Q13616)	inhibitor, FRET	–	added: ROC1-CUL1 CTD	5.01 µM
OC[C@@H]1[C@@H](O)[C@H](O)[C@@H](O)CN1CCCCCOCc1ccc(-c2ccc3c(c2)OCO3)cc1	GBA1 R534H	inhibitor, 4MU-β-D-glucopyranoside	–	added: 4MU-β-D-glucopyranoside	0.5 µM
O=C(NO)c1cncc(OS(=O)(=O)Oc2ccccc2-c2ccccc2)c1	HDAC6	enzyme activity, inhibitor, fluorescence	–	–	0.249 µM
COc1ccc(/C=C/C(=O)c2ccc(C#N)cc2)cc1	P4HB	enzyme activity, inhibitor	–	–	> 100 µM

Repeated from above:
Structure (SMILES)	target	test	test system	conditions	IC50
Nc1ccc(-c2ccc(F)cc2)cc1NC(=O)C1CCOCC1	HDAC6	enzyme activity, inhibitor	–	–	> 33.3 µM
CCCCCCCN1C[C@H](O)[C@@H](O)[C@H](O)[C@H]1CO	GBA1 R534H	inhibitor, 4MU-β-D-glucopyranoside	–	added: 4MU-β-D-glucopyranoside	18.5 µM
CC[C@H](C)C(=O)O[C@H]1C[C@@H](C)C=C2C=C[C@H](C)[C@H](CC[C@@H]3CC=CC(=O)O3)[C@H]21	Cystic fibrosis transmembrane conductance regulator (CFTR, Homo sapiens, UniProt P13569)	apical chloride current, inhibitor	T84, basolaterally permeabilized	added: genistein 20 µM	4.35 µM
O=C1CCC(N2C(=O)c3ccc(N4CCC(C(=O)N5CCC(CCN6CCC(CNC(=O)c7cccc(-c8noc(C(F)(F)F)n8)c7)(c7nc(-c8ccccc8)cs7)CC6)CC5)CC4)cc3C2=O)C(=O)N1 (centres unmarked)	HDAC9	enzyme activity, inhibitor	–	–	0.18 µM
COc1ccc(C[C@H](N)C(=O)N[C@H]2[C@@H](O)[C@H](n3cnc4c(N(C)C)ncnc43)O[C@@H]2CCl)cc1	Puromycin-sensitive aminopeptidase (Homo sapiens, UniProt P55786)	enzyme activity, inhibitor, fluorescence	–	–	3.9 µM
